Measurements gathered from unrelated publications.
Each numbered part is a random draw from the data of one study; scales do not carry over between parts.
Chain of UniProt P28482 (whole entry, looked up): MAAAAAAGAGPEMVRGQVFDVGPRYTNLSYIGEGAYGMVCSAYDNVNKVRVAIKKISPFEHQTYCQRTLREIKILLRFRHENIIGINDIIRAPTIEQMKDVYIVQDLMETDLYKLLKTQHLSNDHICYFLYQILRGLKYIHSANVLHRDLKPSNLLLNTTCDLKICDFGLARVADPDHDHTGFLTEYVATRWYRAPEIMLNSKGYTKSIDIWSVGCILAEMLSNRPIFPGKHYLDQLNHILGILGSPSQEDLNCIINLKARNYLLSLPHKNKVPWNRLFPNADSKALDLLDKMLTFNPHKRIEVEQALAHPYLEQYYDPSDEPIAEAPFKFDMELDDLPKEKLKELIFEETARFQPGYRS
Chain of UniProt P06493 (whole entry, looked up): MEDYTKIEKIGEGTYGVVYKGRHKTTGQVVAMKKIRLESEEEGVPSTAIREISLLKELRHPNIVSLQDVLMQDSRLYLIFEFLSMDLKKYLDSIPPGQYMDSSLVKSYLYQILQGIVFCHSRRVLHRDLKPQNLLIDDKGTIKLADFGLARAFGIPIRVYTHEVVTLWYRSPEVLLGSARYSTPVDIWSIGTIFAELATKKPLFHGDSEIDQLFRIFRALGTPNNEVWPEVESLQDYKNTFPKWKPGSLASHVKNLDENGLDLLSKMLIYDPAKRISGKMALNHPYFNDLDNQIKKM
Chain of UniProt P51956 (whole entry, looked up): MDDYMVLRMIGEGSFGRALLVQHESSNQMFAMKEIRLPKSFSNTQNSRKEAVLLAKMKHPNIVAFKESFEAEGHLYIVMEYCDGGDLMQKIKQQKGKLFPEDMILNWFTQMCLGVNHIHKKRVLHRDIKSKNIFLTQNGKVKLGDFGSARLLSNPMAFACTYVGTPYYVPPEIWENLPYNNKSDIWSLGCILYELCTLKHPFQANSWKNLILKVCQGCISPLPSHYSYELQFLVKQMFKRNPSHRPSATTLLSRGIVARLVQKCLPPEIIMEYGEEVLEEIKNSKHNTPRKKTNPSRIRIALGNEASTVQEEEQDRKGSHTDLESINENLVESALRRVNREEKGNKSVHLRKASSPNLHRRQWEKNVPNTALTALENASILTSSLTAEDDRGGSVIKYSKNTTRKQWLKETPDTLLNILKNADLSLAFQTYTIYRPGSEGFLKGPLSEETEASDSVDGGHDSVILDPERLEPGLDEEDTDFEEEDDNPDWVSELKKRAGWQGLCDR
Chain of UniProt P41743 (whole entry, looked up): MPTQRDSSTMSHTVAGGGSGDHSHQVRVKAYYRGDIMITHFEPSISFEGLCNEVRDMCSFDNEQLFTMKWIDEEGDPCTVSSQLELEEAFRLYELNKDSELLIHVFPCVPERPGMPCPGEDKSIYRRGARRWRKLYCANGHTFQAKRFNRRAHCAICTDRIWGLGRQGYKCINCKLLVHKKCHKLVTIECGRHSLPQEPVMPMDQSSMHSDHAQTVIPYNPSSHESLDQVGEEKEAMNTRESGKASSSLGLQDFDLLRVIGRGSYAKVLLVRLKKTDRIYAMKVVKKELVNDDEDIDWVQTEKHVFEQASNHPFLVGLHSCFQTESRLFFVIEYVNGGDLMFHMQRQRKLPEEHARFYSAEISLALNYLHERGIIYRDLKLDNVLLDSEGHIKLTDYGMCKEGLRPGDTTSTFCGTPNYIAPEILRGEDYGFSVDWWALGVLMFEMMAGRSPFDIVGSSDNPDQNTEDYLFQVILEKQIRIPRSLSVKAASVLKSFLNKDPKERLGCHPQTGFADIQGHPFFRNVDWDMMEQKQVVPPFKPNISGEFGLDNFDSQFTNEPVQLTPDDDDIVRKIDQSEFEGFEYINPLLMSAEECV
Chain of UniProt P42336 (whole entry, unmodified, looked up): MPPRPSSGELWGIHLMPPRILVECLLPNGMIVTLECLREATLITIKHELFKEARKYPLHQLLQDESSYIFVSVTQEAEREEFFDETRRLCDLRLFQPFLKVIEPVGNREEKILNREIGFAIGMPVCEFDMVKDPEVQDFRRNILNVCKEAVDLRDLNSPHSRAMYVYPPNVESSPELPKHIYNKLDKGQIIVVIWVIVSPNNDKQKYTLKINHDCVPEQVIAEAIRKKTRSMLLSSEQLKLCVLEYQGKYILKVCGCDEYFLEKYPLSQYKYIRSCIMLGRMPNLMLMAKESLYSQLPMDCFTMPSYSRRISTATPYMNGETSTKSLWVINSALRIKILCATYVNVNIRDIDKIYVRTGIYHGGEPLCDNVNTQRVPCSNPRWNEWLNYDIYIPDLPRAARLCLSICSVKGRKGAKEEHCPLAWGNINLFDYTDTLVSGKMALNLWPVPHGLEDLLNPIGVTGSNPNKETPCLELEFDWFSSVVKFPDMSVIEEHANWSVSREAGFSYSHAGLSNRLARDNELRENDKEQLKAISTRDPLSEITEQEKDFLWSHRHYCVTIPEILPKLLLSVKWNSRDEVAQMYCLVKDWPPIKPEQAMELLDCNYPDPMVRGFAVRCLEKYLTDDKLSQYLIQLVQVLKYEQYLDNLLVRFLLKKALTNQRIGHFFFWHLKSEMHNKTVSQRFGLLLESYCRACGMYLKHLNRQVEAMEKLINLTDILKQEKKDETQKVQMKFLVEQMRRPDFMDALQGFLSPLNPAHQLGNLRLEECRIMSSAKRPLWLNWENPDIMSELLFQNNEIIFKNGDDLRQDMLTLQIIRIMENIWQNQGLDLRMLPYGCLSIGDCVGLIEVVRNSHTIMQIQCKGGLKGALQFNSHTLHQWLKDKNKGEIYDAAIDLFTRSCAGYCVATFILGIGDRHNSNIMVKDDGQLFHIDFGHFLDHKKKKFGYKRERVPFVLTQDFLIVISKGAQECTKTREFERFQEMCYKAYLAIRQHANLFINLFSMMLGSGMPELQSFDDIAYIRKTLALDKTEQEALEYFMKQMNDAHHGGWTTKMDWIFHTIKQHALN
Chain of UniProt Q13464 (whole entry, looked up): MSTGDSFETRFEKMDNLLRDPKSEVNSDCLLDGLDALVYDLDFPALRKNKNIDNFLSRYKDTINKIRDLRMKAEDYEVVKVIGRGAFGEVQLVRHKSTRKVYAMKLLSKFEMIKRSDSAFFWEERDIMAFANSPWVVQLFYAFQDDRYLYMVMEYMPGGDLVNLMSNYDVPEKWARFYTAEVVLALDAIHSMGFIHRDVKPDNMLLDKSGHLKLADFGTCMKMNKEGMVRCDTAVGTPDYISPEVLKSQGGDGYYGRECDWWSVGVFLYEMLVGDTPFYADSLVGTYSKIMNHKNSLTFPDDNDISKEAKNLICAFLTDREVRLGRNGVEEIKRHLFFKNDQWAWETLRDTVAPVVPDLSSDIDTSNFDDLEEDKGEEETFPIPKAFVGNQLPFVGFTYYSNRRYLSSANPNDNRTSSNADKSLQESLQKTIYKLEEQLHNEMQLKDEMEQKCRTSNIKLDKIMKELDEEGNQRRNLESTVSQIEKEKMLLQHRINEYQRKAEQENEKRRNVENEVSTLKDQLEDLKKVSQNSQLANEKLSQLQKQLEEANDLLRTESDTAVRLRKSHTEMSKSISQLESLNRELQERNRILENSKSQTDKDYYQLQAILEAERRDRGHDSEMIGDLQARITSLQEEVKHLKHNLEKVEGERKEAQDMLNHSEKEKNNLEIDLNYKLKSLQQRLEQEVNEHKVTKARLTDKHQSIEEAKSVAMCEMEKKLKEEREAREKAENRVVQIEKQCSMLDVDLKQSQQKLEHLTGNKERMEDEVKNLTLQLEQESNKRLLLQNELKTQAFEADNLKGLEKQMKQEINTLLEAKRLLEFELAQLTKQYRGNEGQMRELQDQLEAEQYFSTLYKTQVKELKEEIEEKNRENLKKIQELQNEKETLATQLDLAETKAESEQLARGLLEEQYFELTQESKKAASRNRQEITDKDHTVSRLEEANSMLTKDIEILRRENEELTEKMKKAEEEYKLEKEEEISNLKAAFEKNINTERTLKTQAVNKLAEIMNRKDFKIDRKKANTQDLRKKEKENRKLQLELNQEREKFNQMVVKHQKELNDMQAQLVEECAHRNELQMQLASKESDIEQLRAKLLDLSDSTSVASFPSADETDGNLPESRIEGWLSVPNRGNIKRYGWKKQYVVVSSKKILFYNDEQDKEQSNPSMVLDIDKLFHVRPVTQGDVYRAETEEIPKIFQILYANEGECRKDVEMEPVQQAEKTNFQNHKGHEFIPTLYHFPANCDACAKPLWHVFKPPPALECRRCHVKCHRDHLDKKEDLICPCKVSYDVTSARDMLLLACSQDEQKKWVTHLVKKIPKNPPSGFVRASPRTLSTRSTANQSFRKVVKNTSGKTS
Chain of UniProt Q16539 (whole entry, looked up): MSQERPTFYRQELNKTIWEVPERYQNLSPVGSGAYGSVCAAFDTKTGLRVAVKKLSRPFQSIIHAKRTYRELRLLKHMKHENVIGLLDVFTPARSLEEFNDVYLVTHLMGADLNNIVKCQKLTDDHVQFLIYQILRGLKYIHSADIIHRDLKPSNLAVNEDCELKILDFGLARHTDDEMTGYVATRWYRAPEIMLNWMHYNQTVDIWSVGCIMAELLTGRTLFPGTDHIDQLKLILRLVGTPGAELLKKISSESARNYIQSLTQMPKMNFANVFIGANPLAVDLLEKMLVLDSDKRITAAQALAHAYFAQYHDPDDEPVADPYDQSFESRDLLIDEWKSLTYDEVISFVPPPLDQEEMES

Block 1
SMILES: CC(=O)Nc1c(C(C)=O)c(=O)n(C)c2nc(-c3ccc(Cl)cc3Cl)c(-c3ccc(Cl)cc3)cc12
Effect on: cell-free assay
Method: competition with immobilised ligand
Tested at: 1 µM
target	remaining binding [%]
BRSK2 (Homo sapiens, UniProt Q8IWQ3)	100
PRKCI (Homo sapiens, UniProt P41743)	100
MAPK1 (Homo sapiens, UniProt P28482)	100
TESK1 (Homo sapiens, UniProt Q15569)	100
PIK3CA (Homo sapiens, UniProt P42336, I800L)	58
EIF2AK1 (Homo sapiens, UniProt Q9BQI3)	68

Block 2
Target: Beta-1 adrenergic receptor (ADRB1, Homo sapiens, UniProt P08588)
Chain of UniProt P08588 (whole entry, looked up): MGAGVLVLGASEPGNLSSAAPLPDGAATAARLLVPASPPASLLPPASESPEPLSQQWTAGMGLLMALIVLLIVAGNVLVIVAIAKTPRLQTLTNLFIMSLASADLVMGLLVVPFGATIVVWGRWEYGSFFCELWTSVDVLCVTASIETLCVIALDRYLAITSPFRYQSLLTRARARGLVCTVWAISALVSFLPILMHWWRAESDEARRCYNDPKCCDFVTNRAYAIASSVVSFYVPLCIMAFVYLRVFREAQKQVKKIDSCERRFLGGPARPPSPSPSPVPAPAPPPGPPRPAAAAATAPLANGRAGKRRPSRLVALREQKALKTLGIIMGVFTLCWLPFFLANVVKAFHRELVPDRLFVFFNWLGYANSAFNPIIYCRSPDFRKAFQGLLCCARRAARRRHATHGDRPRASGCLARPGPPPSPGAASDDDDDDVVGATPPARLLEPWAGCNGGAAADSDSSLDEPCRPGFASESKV
Mode: antagonist
SMILES	IC50 [µM]
CCCC(=O)c1cc(F)ccc1OCC(O)CNC(C)(C)C (stereo not shown)	≥ 100
CN1C(=O)COC[C@@H]1[C@H](O)c1ccc(NC(=O)Cc2ccccc2)cc1	≥ 100
Brc1ccc(-c2noc(-c3c[nH]nc3-c3ccccc3)n2)cc1	≥ 100
CN(C)c1cccc(-c2nc(N3CCOCC3)cc3c2CN(Cc2cnn(C)c2)C3=O)c1	≥ 100
Cc1ccsc1-c1n[nH]c2ncc(-c3ccc(F)cc3)nc12	≥ 100
Cc1noc(C)c1-c1nccc2c(=O)cc(N(C)c3ccccc3)oc12	≥ 100
c1cnc(OCC2CCCN(c3ccc4ccccc4n3)C2)nc1 (stereo not shown)	≥ 100
COc1ccccc1N1CCN(C(=O)[C@@H]2Cc3c[nH]c4cccc(c34)[C@H](CC(C)C)N2)CC1	≥ 100

Block 3
Compound: Cc1cc(Nc2cc(N3CCN(C)CC3)nc(Sc3ccc(NC(=O)C4CC4)cc3)n2)[nH]n1
Effect on: enzyme activity
Mode: inhibitor
Tested at: 0.5 µM
Relative to: control
target	remaining activity [%]
ROCK1 (Homo sapiens, UniProt Q13464)	110
TXK (Homo sapiens, UniProt P42681)	78.8
PLK3 (Homo sapiens, UniProt Q9H4B4)	98.8
Cyclin-dependent kinase 1, with cyclin A (CDK1, Homo sapiens, UniProt P06493)	99.1
PRKG2 (Homo sapiens, UniProt Q13237)	105
DDR2 (Homo sapiens, UniProt Q16832)	61.9
Cyclin-dependent kinase 9, with cyclin K (CDK9, Homo sapiens, UniProt P50750)	102
KDR (Homo sapiens, UniProt P35968)	85.3
NEK3 (Homo sapiens, UniProt P51956)	95
MAPK1 (Homo sapiens, UniProt P28482)	91.2
MAPK14 (Homo sapiens, UniProt Q16539)	97.2
AKT2 (Homo sapiens, UniProt P31751)	103

Single results of other studies
Structure (SMILES)	cell line	test	setting	endpoint	value
C=CC(=O)Nc1cccc(Nc2nc(Nc3ccc(N4CCN(C(C)=O)CC4)cc3OC)ncc2C(F)(F)F)c1	A-375	–	100 µM, 60 h	viability	6.01%
Cc1cc2c(C(N)=O)c(N)n(-c3c(C)ccc(O)c3C)c2nc1C	HCT-116	MEK phosphorylation, paradoxical activator, refers to: phospho-MEK	–	EC50	0.0302 µM

A few entries again (block 3):
target	remaining activity [%]
TXK (Homo sapiens, UniProt P42681)	78.8
PLK3 (Homo sapiens, UniProt Q9H4B4)	98.8
Cyclin-dependent kinase 1, with cyclin A (CDK1, Homo sapiens, UniProt P06493)	99.1
